Measurements from different studies.
Each line is one published result; not all experiments were run side by side. “And” joins repeats or separate records; there may be more than shown. Numbers after ± are the reported error.
USP14: Ubiquitin carboxyl-terminal hydrolase 14 (USP14, Homo sapiens, UniProt P54578)
Sequence of UniProt P54578 (whole entry, looked up): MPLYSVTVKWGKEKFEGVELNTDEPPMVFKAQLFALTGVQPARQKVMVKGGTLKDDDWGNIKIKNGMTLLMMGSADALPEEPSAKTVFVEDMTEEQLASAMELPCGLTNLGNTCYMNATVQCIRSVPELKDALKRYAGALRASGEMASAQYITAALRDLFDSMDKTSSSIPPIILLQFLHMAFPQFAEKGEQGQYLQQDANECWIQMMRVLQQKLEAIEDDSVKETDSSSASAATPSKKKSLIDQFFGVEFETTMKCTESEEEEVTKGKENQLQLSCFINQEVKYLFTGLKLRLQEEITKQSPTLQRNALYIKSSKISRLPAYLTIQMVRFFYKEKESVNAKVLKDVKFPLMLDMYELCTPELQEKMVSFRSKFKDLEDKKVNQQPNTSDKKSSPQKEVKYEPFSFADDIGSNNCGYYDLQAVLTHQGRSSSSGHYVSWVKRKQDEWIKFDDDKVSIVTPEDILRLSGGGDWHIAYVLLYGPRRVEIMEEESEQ
Gria2/Glutamate receptor 3: Gria2/Glutamate receptor 3 (Rattus norvegicus, UniProt P19491+P19492)
Sequence of UniProt P19492 (whole entry, looked up): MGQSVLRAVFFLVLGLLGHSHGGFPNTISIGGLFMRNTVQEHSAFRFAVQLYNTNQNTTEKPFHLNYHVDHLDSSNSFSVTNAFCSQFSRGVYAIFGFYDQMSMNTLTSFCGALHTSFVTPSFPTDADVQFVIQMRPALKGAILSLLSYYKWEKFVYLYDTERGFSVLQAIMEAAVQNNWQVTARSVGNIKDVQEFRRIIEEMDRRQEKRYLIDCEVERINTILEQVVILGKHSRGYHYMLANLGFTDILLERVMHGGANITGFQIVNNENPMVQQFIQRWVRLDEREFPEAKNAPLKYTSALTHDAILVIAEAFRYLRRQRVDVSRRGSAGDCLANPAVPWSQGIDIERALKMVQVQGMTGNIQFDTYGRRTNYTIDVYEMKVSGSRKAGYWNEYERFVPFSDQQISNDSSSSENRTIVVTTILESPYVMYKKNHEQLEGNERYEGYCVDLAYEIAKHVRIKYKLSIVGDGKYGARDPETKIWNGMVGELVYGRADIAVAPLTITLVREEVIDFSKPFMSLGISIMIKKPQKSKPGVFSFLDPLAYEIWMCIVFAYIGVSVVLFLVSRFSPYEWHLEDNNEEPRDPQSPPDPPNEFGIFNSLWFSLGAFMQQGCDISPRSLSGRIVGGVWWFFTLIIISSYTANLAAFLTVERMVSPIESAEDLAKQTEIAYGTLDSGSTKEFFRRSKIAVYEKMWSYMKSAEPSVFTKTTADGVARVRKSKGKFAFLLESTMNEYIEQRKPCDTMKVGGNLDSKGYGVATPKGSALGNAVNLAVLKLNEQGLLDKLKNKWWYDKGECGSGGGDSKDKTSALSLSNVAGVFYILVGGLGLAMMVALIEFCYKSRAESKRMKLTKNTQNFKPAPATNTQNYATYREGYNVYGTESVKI
Sequence of UniProt P19491 (whole entry, looked up): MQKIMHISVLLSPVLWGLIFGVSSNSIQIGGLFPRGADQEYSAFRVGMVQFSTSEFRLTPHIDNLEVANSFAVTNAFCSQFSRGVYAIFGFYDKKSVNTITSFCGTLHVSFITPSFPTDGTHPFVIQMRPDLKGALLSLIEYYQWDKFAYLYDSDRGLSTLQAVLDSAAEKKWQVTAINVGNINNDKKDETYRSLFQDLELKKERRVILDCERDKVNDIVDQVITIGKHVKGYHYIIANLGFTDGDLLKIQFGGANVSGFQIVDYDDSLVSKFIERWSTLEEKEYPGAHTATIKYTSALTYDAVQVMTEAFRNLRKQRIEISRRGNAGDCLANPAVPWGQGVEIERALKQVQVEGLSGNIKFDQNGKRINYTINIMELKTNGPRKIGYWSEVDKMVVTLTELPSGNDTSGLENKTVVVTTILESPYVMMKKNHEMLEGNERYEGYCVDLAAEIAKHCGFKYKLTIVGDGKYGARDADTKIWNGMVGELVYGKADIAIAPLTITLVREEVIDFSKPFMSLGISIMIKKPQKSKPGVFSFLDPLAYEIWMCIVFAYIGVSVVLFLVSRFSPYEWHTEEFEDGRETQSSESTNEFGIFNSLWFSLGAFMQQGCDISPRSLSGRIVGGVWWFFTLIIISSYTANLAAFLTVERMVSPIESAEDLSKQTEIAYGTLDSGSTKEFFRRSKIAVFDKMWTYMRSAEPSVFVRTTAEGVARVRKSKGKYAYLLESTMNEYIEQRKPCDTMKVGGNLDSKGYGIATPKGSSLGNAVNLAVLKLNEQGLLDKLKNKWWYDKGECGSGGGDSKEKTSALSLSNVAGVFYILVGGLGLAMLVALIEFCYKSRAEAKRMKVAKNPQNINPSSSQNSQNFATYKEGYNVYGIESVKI
SLC6A9: Sodium- and chloride-dependent glycine transporter 1 (SLC6A9, Homo sapiens, UniProt P48067)
Sequence of UniProt P48067 (whole entry, looked up): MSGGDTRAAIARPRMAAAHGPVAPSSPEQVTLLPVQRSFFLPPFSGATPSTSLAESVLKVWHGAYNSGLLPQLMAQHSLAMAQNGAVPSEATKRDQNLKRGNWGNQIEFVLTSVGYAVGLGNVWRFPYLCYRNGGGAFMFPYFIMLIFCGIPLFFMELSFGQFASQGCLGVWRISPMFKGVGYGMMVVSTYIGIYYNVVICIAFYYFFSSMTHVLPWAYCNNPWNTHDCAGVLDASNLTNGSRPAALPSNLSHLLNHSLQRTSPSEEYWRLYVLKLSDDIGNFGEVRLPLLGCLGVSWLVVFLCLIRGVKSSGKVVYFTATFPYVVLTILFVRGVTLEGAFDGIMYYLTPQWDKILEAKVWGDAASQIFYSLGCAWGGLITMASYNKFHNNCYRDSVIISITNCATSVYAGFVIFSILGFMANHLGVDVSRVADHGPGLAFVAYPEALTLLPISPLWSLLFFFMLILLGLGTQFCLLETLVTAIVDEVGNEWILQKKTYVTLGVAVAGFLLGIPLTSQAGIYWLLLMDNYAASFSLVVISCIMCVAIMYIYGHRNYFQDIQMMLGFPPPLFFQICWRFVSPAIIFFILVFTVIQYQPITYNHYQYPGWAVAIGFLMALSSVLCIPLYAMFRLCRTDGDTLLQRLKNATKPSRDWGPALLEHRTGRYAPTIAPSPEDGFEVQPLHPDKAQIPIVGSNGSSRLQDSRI
Sequence of UniProt P08191 (whole entry, unmodified, looked up): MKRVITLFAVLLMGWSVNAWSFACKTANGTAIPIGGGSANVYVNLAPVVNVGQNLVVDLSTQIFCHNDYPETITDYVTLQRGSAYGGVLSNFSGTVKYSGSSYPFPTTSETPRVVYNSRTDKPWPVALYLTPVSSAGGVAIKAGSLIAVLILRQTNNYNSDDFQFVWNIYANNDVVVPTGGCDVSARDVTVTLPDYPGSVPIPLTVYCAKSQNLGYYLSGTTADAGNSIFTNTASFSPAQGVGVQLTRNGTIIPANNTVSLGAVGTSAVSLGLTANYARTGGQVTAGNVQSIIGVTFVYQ
Sequence of UniProt Q9H0H5 (whole entry, looked up): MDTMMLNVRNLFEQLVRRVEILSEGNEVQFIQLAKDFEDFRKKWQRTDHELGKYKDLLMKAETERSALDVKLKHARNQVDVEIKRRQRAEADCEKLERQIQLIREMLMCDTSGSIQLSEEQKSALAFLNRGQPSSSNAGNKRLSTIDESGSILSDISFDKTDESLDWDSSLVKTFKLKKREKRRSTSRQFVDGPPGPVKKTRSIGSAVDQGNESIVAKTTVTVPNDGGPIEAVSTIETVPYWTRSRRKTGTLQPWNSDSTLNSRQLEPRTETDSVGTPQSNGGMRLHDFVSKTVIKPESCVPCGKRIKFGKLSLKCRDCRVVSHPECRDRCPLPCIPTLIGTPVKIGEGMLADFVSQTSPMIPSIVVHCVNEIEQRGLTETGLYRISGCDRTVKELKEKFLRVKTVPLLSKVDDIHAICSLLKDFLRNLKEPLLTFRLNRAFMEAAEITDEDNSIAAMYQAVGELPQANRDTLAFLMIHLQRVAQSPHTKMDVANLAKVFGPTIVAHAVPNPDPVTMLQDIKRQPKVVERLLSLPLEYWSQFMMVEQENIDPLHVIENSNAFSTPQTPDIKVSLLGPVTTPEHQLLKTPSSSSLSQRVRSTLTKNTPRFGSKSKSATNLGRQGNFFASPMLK
Sequence of UniProt Q9QUR6 (whole entry, looked up): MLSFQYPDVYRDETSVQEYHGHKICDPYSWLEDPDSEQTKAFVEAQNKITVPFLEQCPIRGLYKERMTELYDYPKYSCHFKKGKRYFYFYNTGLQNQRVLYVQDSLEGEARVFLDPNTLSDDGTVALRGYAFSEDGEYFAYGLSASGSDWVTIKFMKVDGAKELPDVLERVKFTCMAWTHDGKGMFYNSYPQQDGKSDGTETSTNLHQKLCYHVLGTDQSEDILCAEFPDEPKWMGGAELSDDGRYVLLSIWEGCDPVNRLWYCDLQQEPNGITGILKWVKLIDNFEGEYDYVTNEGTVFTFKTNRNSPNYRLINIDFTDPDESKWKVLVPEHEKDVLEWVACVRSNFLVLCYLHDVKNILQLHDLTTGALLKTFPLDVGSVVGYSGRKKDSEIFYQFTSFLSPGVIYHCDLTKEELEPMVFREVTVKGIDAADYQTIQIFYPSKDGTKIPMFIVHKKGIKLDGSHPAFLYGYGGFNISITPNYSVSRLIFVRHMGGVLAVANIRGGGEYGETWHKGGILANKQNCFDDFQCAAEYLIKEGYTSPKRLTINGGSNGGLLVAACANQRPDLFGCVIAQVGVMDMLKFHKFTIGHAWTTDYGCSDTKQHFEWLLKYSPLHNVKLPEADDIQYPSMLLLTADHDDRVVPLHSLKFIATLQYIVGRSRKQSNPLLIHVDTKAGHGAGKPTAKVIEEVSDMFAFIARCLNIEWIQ
Sequence of UniProt P35232 (whole entry, looked up): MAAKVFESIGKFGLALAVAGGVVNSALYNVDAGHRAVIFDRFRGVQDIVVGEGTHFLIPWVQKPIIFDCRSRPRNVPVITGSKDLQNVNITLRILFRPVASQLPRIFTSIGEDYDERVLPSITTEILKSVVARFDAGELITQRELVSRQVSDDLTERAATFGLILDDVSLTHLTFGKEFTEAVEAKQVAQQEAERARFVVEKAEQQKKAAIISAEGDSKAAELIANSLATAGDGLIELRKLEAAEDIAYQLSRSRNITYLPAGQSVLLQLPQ

SMILES	target or system	assay	system	conditions	scale	endpoint	value
CCOC(=O)c1c(C)oc2c1C(=O)C(=NO)c1ccccc1-2	USP14	enzyme activity, inhibitor		17 µM		inhibition	35%
C=C1C[C@@]2(C(=O)OC)C=C(C(=O)Nc3cccc(C(=O)Nc4ccc(Nc5nccc(-c6cccnc6)n5)c(C)c4)c3)C(=O)[C@@H]1C2	MAPK8 (Homo sapiens, UniProt P45983)	kinase activity, inhibitor		0.1829 µM, unit not given, together with: 10 mM glutathione	relative to: no inhibitor	remaining activity	0.432
O=c1[nH]c(=S)c2c(n1N1CCOCC1)CCC2	USP14	enzyme activity, inhibitor		17 µM		inhibition	9%
CCCCOc1ccc(C(=O)OCC[N+]2(C)CC=CCC2)cc1 (stereo not drawn)	CHRM1 (Homo sapiens, UniProt P11229)		membranes	100 µM, 15 h, no carbachol	relative to: control	basal binding	0.88 ± 0.03 fold
CCCCCC(O)/C=C/C=O (stereo not drawn)	Outer kinetochore KNL1 complex subunit ZWINT (ZWINT, Homo sapiens, UniProt O95229)	competitive isoTOP-ABPP, item: ZWINT cysteine peptide	Ramos soluble proteome	100 µM, together with: iodoacetamide probe	relative to: DMSO over compound-treated, higher = stronger cysteine blockade	isoTOP-ABPP competition ratio	2.7
O=C(O)Cc1cc2c(cc1C(=O)c1cccc(Br)c1)OCO2	Gria2/Glutamate receptor 3	glutamate-evoked current, whole-cell patch clamp	HEK-293T	concentration not given		current amplitude	95 ± 11 pA
CCCC[C@H](NC(=O)COCCOCCNC(=O)CN1CCN(CC(=O)O)CCN(CC(=O)O)CC1)C(=O)N[C@H]1CC(=O)NCCCC[C@@H](C(N)=O)NC(=O)[C@H](Cc2c[nH]c3ccccc23)NC(=O)[C@H](CCCNC(=N)N)NC(=O)[C@@H](Cc2ccccc2)NC(=O)[C@H](Cc2c[nH]cn2)NC1=O [technetium-99m labelled]			C57 mouse, spleen	intravenous, 0.037 MBq, 4 h		tissue uptake	0.1 ± 0.08 %ID/g
CCCCCCCCCCCCCCCC(=O)OCC(CSC[C@H](N)C(=O)N[C@@H](CO)C(=O)N[C@@H](CCCCN)C(=O)N[C@@H](CCCCN)C(=O)N[C@@H](CCCCN)C(=O)N[C@@H](CCCCN)C(=O)NCCCCCC(=O)N[C@@H](CCCCN)C(=O)N[C@@H](CC(C)C)C(=O)N[C@H](C(=O)N[C@@H](Cc1ccccc1)C(=O)N[C@@H](Cc1ccccc1)C(=O)N[C@@H](Cc1ccc2ccccc2c1)C(=O)O)C(C)C)OC(=O)CCCCCCCCCCCCCCC (stereo partly drawn)	Amyloid-beta precursor protein, fibrillar amyloid-beta (APP, Homo sapiens, UniProt P05067)	TEM		2.0 eq, 28 h, fibril 3, together with: APP 20 µM		fibril diameter	16 nm
COC(=O)CN1CCCc2cc3cc(C(=O)NC(Cc4ccc(C)cc4)C(=O)NCC=CS(=O)(=O)c4ccccc4)c(=O)oc3cc21 (stereo not drawn)	Cathepsin S (CTSS, Homo sapiens, UniProt P25774)	inhibitor		together with: Z-Phe-Arg-AMC		kinact/Ki	527 M⁻¹ s⁻¹
Cn1nc(-c2ccc(F)cc2)nc2c(=O)n(C)c(=O)nc1-2	USP14	enzyme activity, inhibitor		17 µM		inhibition	86%
N#CN1CC[C@H](C(=O)Nc2nc3c(s2)CN(C(=O)Cn2cc(CNC(=O)CCCC[C@@H]4SC[C@@H]5NC(=O)N[C@@H]54)nn2)CC3)C1	E3 ubiquitin-protein ligase HECTD1 (HECTD1, Homo sapiens, UniProt Q9ULT8)	probe binding, affinity probe, neutravidin pull-down LC-MS/MS	HEK293T, cell lysate	5 µM, 1 h, single replicate, unit not given	higher = more pulled down	iBAQ abundance	843000 and 495000 and 798000
NC(=O)C1(O)CN(C(c2ccccc2)c2ccccc2)C1	SLC6A9	cell-free assay		1 µM		remaining signal	97.7%
C#CCN1CCN(c2nc(N3CCN(c4ccc(Cc5cc(CNC(=O)[C@@H]6C[C@@H](O)CN6C(=O)[C@@H](NC(=O)C6(F)CC6)C(C)(C)C)c(O)cc5-c5scnc5C)cc4)CC3)nc(N3CCN(C(=O)C4CC4)C3)n2)CC1=O	VHL/BRD9 (Homo sapiens, UniProt P40337+Q9H8M2)	BRD9 degradation, degrader, HiBiT	HEK293T BRD9-HiBiT	15 h		Dmax	47%
CCCCCCCO[C@H]1O[C@H](CO)[C@@H](O)[C@H](O)[C@@H]1O	Type 1 fimbrin D-mannose specific adhesin, lectin domain (fimH, Escherichia coli K-12, UniProt P08191)	binding, isothermal titration calorimetry		15 °C		ΔH	-9.8 kcal/mol and -9.75 kcal/mol
C[n+]1cc(NC(=O)c2ccc3ccc4ccc(C(=O)Nc5cc6ccccc6[n+](C)c5)nc4c3n2)cc2ccccc21	MYC promoter parallel G-quadruplex DNA	UV melting		6 µM, 1 mM potassium, together with: DNA 3 µM		delta Tm	> 37 °C
COc1ccc2c(c1)-c1nc(N)sc1CC2	Rac GTPase-activating protein 1 (Homo sapiens, UniProt Q9H0H5)	GAP activity, malachite green phosphate		concentration not given, orthogonal retest		inhibition	46.4%
O=C(N/N=C/c1cc[n+](Cc2ccccc2)c2ccccc12)c1ccc2ccc(C(=O)N/N=C/c3cc[n+](Cc4ccccc4)c4ccccc34)nc2n1	hp2 hairpin duplex DNA	FRET melting		1 µM		ΔTm	1.1 ± 0.4 °C
Cc1cc(C)cc(COc2cc3c(cc2OCc2cc(C)cc(C)c2)C2CC(O)(Cc4cn(CCOCCOCCNC(=O)CCCCC5SCC6NC(=O)NC65)nn4)CC(C)N2CC3)c1 (stereo not drawn)	Prohibitin 1 (PHB1, Homo sapiens, UniProt P35232)	biotinylated probe pull-down SILAC-ABPP, item: PHB		10 µM probe	relative to: heavy over light	SILAC ratio	1.76
O=C(N1CCCC1)n1cc(-c2ccc(-c3ccccc3)cc2)nn1	Prolyl endopeptidase (Mus musculus, UniProt Q9QUR6)	enzyme activity, inhibitor, competitive ABPP-SILAC, item: Prep	mouse T-cells	concentration not given, 4 h, treated in situ	relative to: DMSO	activity ratio	1.27
Cc1ncc2[nH]c(=O)n(-c3cnc(Oc4cccc5c4C(C)(C)CO5)c(Cl)c3C)c2n1	KCNC1 (Homo sapiens, UniProt P48547)	potassium current, manual patch clamp		1 µM		deactivation time constant τ1	increased
O=C(O)Cc1cc2c(cc1C(=O)c1ccc(Cl)cc1Cl)OCO2	Gria2/Glutamate receptor 3	whole-cell patch clamp	HEK-293T	concentration not given, together with: glutamate		desensitization time constant	0.6 ± 0.08 ms
C=C=C(CN1CCCC(C(=O)O)C1)C(c1ccc(OC)cc1)(c1ccc(OC)cc1)c1ccc(OC)cc1 (stereo not drawn)	SLC6A9	cell-free assay		1 µM		remaining signal	22.4%
CC(C)C[C@@H]1NC(=O)CN(C)C(=O)[C@H](Cc2c[nH]c3ccccc23)NC(=O)[C@H](CCC(=O)O)NC(=O)[C@H](Cc2ccccc2)N(C)C(=O)[C@H](Cc2ccccc2)NC(=O)CSC[C@@H](C(N)=O)NC(=O)[C@H](CCCCN)NC(=O)[C@H](C(C)C)NC(=O)[C@H](Cc2ccc(O)cc2)NC(=O)[C@H](Cc2ccc(O)cc2)NC(=O)[C@H](C(C)C)NC(=O)[C@H](Cc2ccccc2)N(C)C(=O)[C@H](CCCNC(=N)N)NC1=O	AT-rich interactive domain-containing protein 1B (ARID1B, Homo sapiens, UniProt Q8NFD5, E2199R)	differential scanning fluorimetry		5 µM, E2116R mutant		ΔTm	7 °C
C#CCOC(=O)[C@@]1(C)C=C(C(=O)OC(C)(C)C)C(=O)CC1	MAPK1 (Homo sapiens, UniProt P28482)	enzyme activity, D-SENSOR		0.02032 µM, mean of replicates		normalized kinase activity	1.06
CC(C)[C@@H]1NC(=O)[C@H](Cc2ccccc2)NC(=O)CSC[C@@H](C(N)=O)NC(=O)[C@H](CCC(=O)O)NC(=O)[C@H](CO)NC(=O)[C@H](Cc2c[nH]c3cccc(Cl)c23)NC(=O)[C@H](C2CCCCC2)NC(=O)[C@H](C(C)C)NC(=O)[C@H](Cc2ccc(O)cc2)NC(=O)[C@H](CC(=O)O)NC(=O)[C@H](Cc2c[nH]c3ccccc23)NC(=O)[C@H](Cc2ccc(N)nc2)NC(=O)[C@H](Cc2c[nH]c3ccc(Cl)cc23)NC(=O)[C@H](CCC(=O)O)NC1=O	Interleukin-1 receptor-like 2 (IL1RL2, Homo sapiens, UniProt Q9HB29)	reporter gene (SEAP), inhibitor, HEK-Blue IL-36R reporter	HEK-Blue IL-36R cells	100 µM, 6 h, together with: IL-36γ 0.1 ng/mL		remaining activity	0.3%
COC(=O)[C@@]1(C)C=C(C(=O)Nc2cccc(C(=O)Nc3ccc(Nc4nccc(-c5cccnc5)n4)c(C)c3)c2)C(=O)CC1	MAPK9 (Homo sapiens, UniProt P45984)	enzyme activity, inhibitor		0.06097 µM, unit not given	relative to: vehicle	remaining activity	0.691
C[Si]1(C[C@H](CN)CC(=O)O)CCCC1	SIGMAR1 (Homo sapiens, UniProt Q99720)	ligand displacement, radioligand		70 µM		inhibition	-3%

Excerpt of the above:
SMILES	target or system	assay	system	conditions	scale	endpoint	value
CCCC[C@H](NC(=O)COCCOCCNC(=O)CN1CCN(CC(=O)O)CCN(CC(=O)O)CC1)C(=O)N[C@H]1CC(=O)NCCCC[C@@H](C(N)=O)NC(=O)[C@H](Cc2c[nH]c3ccccc23)NC(=O)[C@H](CCCNC(=N)N)NC(=O)[C@@H](Cc2ccccc2)NC(=O)[C@H](Cc2c[nH]cn2)NC1=O [technetium-99m labelled]			C57 mouse, spleen	intravenous, 0.037 MBq, 4 h		tissue uptake	0.1 ± 0.08 %ID/g
C#CCOC(=O)[C@@]1(C)C=C(C(=O)OC(C)(C)C)C(=O)CC1	MAPK1 (Homo sapiens, UniProt P28482)	enzyme activity, D-SENSOR		0.02032 µM, mean of replicates		normalized kinase activity	1.06
